Published values from different studies.
Lines come from different studies, so protocols differ.
Organism: Staphylococcus aureus

SMILES = CN[C@H](CC(C)C)C(=O)N[C@H]1C(=O)N[C@@H](CC(N)=O)C(=O)N[C@H]2C(=O)N[C@H]3C(=O)N[C@H](C(=O)N[C@H](C(=O)NCC(N)=O)c4cc(O)cc(O)c4-c4cc3ccc4O)[C@H](O)c3ccc(c(Cl)c3)Oc3cc2cc(c3O[C@@H]2O[C@H](CO)[C@@H](O)[C@H](O)[C@H]2O[C@H]2C[C@](C)(NCc3ccc(OCc4cn(CC(=O)N[C@H](C(=O)N[C@@H](CCN)C(=O)N[C@H]5CCNC(=O)[C@H]([C@@H](C)O)NC(=O)[C@H](CCN)NC(=O)[C@H](CCN)NC(=O)[C@H](CC(C)C)NC(=O)[C@@H](CC(C)C)NC(=O)[C@H](CCN)NC5=O)[C@@H](C)O)nn4)c(OC)c3)[C@H](O)[C@H](C)O2)Oc2ccc(cc2Cl)[C@H]1O; system = NRS402 VISA; MIC = 3 µM
SMILES = CC[C@H](C)[C@H](NC(=O)[C@@H](CCCNC(=N)N)NC(=O)[C@H](CCCNC(=N)N)NC(=O)[C@@H]1CCCN1C(=O)[C@@H]1CCCN1C(=O)[C@H](CCCNC(=N)N)NC(=O)[C@@H]1CCCN1C(=O)[C@H](CCCNC(=N)N)NC(=O)[C@@H]1CCCN1C(=O)[C@H](CC(C)C)NC(=O)[C@H](Cc1ccc(O)cc1)NC(=O)[C@@H]1CCCN1C(=O)[C@H](Cc1ccc(O)cc1)NC(=O)[C@H](CCCCN)NC(=O)[C@H](CC(=O)O)NC(=O)[C@@H](N)C(C)C)C(=O)N[C@@H](Cc1ccc(O)cc1)C(=O)N[C@@H](CC(N)=O)C(=O)N[C@H](CCCNC(=N)N)C(N)=O; test = broth microdilution; system = DSM 6247; conditions = 18 h, 37 °C, 25% MHB2; MIC = > 128 µg/mL
SMILES = CC(C)[C@H](NC(=O)CNC(=O)CNC(=O)[C@H](Cc1ccc(O)cc1)NC(=O)[C@H](CS)NC(=O)[C@@H](NC(=O)[C@H](Cc1c[nH]c2ccccc12)NC(=O)[C@H](Cc1ccccc1)NC(=O)[C@H](CS)NC(=O)[C@H](Cc1c[nH]c2ccccc12)NC(=O)[C@@H](N)CCCNC(=N)N)C(C)C)C(=O)N[C@@H](CS)C(=O)N[C@@H](Cc1ccc(O)cc1)C(=O)N[C@@H](CCCNC(=N)N)C(=O)N[C@@H](CCCNC(=N)N)C(=O)N[C@@H](CS)C(=O)N[C@@H](CCCNC(=N)N)C(=O)O; test = broth microdilution; system = ATCC 29213, Mueller-Hinton broth; conditions = 16 to 20 h, 37 °C; MIC = 4.39 µg/mL
SMILES = CC[C@H](C)[C@H](NC(=O)[C@@H](CCCNC(=N)N)NC(=O)[C@H](CCCNC(=N)N)NC(=O)[C@H](CC(N)=O)NC(=O)[C@H](Cc1c[nH]c2ccccc12)NC(=O)[C@H](CCCNC(=N)N)NC(=O)[C@@H]1CCCN1C(=O)[C@H](CCCNC(=N)N)NC(=O)[C@@H]1CCCN1C(=O)[C@H](CC(C)C)NC(=O)[C@H](Cc1ccc(O)cc1)NC(=O)[C@@H]1CCCN1C(=O)[C@@H]1CCCN1C(=O)[C@H](CCCCN)NC(=O)[C@H](CC(=O)O)NC(=O)[C@@H](N)C(C)C)C(=O)N[C@@H](Cc1ccc(O)cc1)C(=O)N[C@@H](CC(N)=O)C(=O)N[C@H](CCCNC(=N)N)C(N)=O; test = broth microdilution; system = DSM 6247; conditions = 18 h, 37 °C, 25% MHB2; MIC = 64 µg/mL
SMILES = Cc1ccc(NC(=O)Nc2cccc(C(=O)N3CCC(C)CC3)c2)cc1; test = checkerboard, item: ceftobiprole; system = CRB, PBP4 overexpressor; conditions = 25 µM; MIC = > 64 µg/mL
SMILES = CN[C@H](CC(C)C)C(=O)N[C@H]1C(=O)N[C@@H](CC(N)=O)C(=O)N[C@H]2C(=O)N[C@H]3C(=O)N[C@H](C(=O)N[C@H](C(=O)NCc4cn(CC(=O)N[C@H](C(=O)N[C@@H](CCN)C(=O)N[C@H]5CCNC(=O)[C@H]([C@@H](C)O)NC(=O)[C@H](CCN)NC(=O)[C@H](CCN)NC(=O)[C@H](CC(C)C)NC(=O)[C@@H](CC(C)C)NC(=O)[C@H](CCN)NC5=O)[C@@H](C)O)nn4)c4cc(O)cc(O)c4-c4cc3ccc4O)[C@H](O)c3ccc(c(Cl)c3)Oc3cc2cc(c3O[C@@H]2O[C@H](CO)[C@@H](O)[C@H](O)[C@H]2O[C@H]2C[C@](C)(N)[C@H](O)[C@H](C)O2)Oc2ccc(cc2Cl)[C@H]1O; test = broth microdilution; system = VISA LIM-2, tryptic soy broth; conditions = 20 to 24 h, 37 °C, 0.002% polysorbate 80; MIC = 2 µg/mL
SMILES = CCCCCCCC[C@H](NC(=O)[C@@H]1CSC([C@@H](N)[C@@H](C)CC)=N1)C(=O)N[C@H](CCC(=O)O)C(=O)N[C@H](C(=O)N[C@H]1CCCCNC(=O)[C@H](CC(N)=O)NC(=O)[C@@H](CC(=O)O)NC(=O)[C@H](Cc2c[nH]cn2)NC(=O)[C@@H](Cc2ccccc2)NC(=O)[C@H]([C@@H](C)CC)NC(=O)[C@@H](CCCN)NC1=O)[C@@H](C)CC; system = USA300 MRSA; conditions = with: ZnSO4 0.3 mM; MIC = 1 µg/mL
SMILES = CC(C)C[C@@H](NC(=O)[C@@H](CCCNC(=N)N)NC(=O)[C@H](N)CCCNC(=N)N)C(=O)N[C@H](CC(C)C)C(=O)N[C@H](CCCNC(=N)N)C(=O)N[C@H](CCCCN)C(=O)N[C@H](CC(C)C)C(=O)N[C@H](CCCCN)C(=O)NCC(=O)N[C@H](CCCCN)C(=O)N[C@H](CCCCN)C(=O)N[C@H](CC(C)C)C(=O)N[C@H](Cc1ccc(O)cc1)C(=O)N[C@H](CC(C)C)C(=O)N[C@H](Cc1ccc(O)cc1)C(=O)N[C@H](Cc1ccccc1)C(=O)N[C@H](CCCCN)C(=O)N[C@H](CC(C)C)C(=O)N[C@H](CCC(N)=O)C(=O)N[C@H](CC(C)C)C(=O)N[C@H](CC(C)C)C(=O)N[C@H](CCCCN)C(=O)N[C@H](CCCCN)C(N)=O; test = broth microdilution; system = KCTC 1621, Mueller-Hinton broth; conditions = 24 h, 37 °C; MIC = 4 µM
SMILES = CC[C@H](C)[C@@H]1NC(=O)[C@H](CO)NC(=O)C(C)(CCCCN)NC(=O)[C@@H]2CSSC[C@@H](C(=O)N[C@@H](Cc3ccc(O)cc3)C(N)=O)NC(=O)[C@H](CCCCN)NC(=O)[C@@H]3CSSC[C@H](NC(=O)[C@H](CCCNC(=N)N)NC(=O)C(C)(CC(C)C)NC(=O)[C@H](CC(=O)O)NC(=O)[C@H](CC(=O)O)NC(=O)[C@H](CCC(=O)O)NC(=O)[C@H](CC(N)=O)NC(=O)[C@H](Cc4c[nH]c5ccccc45)NC(=O)[C@@H]4CCCN4C(=O)CNC(=O)[C@H](CC(N)=O)NC(=O)[C@@H](NC(=O)CNC(=O)[C@H](Cc4ccccc4)NC(=O)CN)CSSC[C@H](NC(=O)[C@H](Cc4ccc(O)cc4)NC(=O)CNC(=O)CNC(=O)[C@H](CCCCN)NC(=O)[C@H](Cc4ccc(O)cc4)NC(=O)CNC(=O)[C@H](CCCCN)NC1=O)C(=O)N[C@@H](C)C(=O)N[C@@H](CCCCN)C(=O)NCC(=O)NCC(=O)N[C@@H](Cc1ccccc1)C(=O)N[C@@H](C(C)C)C(=O)N3)C(=O)N[C@@H](Cc1c[nH]cn1)C(=O)NC(C)(C)C(=O)N[C@@H](Cc1c[nH]cn1)C(=O)N2 (stereo partly drawn); test = broth microdilution; system = USA300 MRSA; conditions = 18 h; MIC = 1 µM
SMILES = CC(C)CCCCCCCCC/C=C/C(=O)N[C@@H](CC(N)=O)C(=O)N[C@H]1CNC(=O)[C@@H]2CCCN2C(=O)[C@H](C(C)C)NC(=O)[C@@H](CN)NC(=O)CNC(=O)[C@H](CC(=O)O)NC(=O)CNC(=O)[C@H](CC(=O)O)NC(=O)[C@H](CC(=O)O)NC(=O)[C@H]2CCCCN2C1=O; test = broth microdilution; system = BR-VRSA strain 880, Mueller-Hinton broth, Mg2+ 10 mg/L; conditions = 16 h, with: Ca2+ 10 mM; MIC = 0.5 µg/mL
SMILES = CC[C@H](C)[C@H](NC(=O)[C@H](CCCCN)NC(=O)[C@@H](NC(=O)[C@@H](NC(=O)[C@H](CC(C)C)NC(=O)[C@H](CCCNC(=N)N)NC(=O)[C@@H](NC(=O)[C@H](CC(C)C)NC(=O)[C@H](CCCNC(=N)N)NC(=O)CNC(=O)[C@H](Cc1ccccc1)NC(=O)[C@@H](N)CCCNC(=N)N)[C@@H](C)CC)[C@@H](C)CC)C(C)C)C(=O)N[C@@H](C)C(=O)N[C@@H](CCCNC(=N)N)C(=O)N[C@@H](CCCNC(=N)N)C(=O)N[C@@H](C)C(=O)N[C@@H](Cc1c[nH]cn1)C(=O)N[C@@H](CCCNC(=N)N)C(=O)N[C@@H](C)C(=O)N[C@@H](CCCNC(=N)N)C(=O)N[C@@H](CO)C(=O)N[C@@H](C)C(=O)N[C@H](C(=O)N[C@@H](CCCCN)C(=O)N[C@@H](C)C(=O)N[C@@H](C)C(=O)N[C@@H](CO)C(=O)N[C@@H](CC(N)=O)C(=O)N[C@H](C(=O)N[C@@H](C)C(=O)N[C@@H](C)C(=O)N[C@@H](CC(C)C)C(=O)N[C@@H](C)C(=O)N[C@@H](Cc1c[nH]cn1)C(=O)NCC(=O)N[C@@H](C)C(N)=O)C(C)C)C(C)C; test = broth microdilution; conditions = 18 h, 37 °C; MIC = ≤ 0.064 µM
SMILES = CN[C@H](CC(C)C)C(=O)N[C@H]1C(=O)N[C@@H](CC(N)=O)C(=O)N[C@H]2C(=O)N[C@H]3C(=O)N[C@H](C(=O)N[C@H](C(=O)N[C@@H](CCCNC(=N)N)C(N)=O)c4cc(O)cc(O)c4-c4cc3ccc4O)[C@H](O)c3ccc(c(Cl)c3)Oc3cc2cc(c3O[C@@H]2O[C@H](CO)[C@@H](O)[C@H](O)[C@H]2O[C@H]2C[C@](C)(NCc3ccc(OCc4cn(CC(=O)N[C@H](C(=O)N[C@@H](CCN)C(=O)N[C@H]5CCNC(=O)[C@H]([C@@H](C)O)NC(=O)[C@H](CCN)NC(=O)[C@H](CCN)NC(=O)[C@H](CC(C)C)NC(=O)[C@@H](CC(C)C)NC(=O)[C@H](CCN)NC5=O)[C@@H](C)O)nn4)c(OC)c3)[C@H](O)[C@H](C)O2)Oc2ccc(cc2Cl)[C@H]1O; system = NRS402 VISA; MIC = 1 µM
SMILES = N=C(N)NCCC[C@@H]1NC(=O)[C@H](CCCNC(=N)N)NC(=O)[C@@H](CCCNC(=N)N)NC(=O)[C@@H](CCCNC(=N)N)NC(=O)[C@@H](C(c2ccccc2)c2ccccc2)NC(=O)[C@@H](Cc2c[nH]c3ccccc23)NC(=O)[C@@H](C(c2ccccc2)c2ccccc2)NC1=O; system = 1195201, multidrug-resistant; MIC = 4 µg/mL
SMILES = c1ccc(CN2CCOCCOCCN(CCCCCCCCCCCCN3CCOCCOCCN(CCCCCCCCCCCCN4CCOCCOCCN(Cc5ccccc5)CCOCCOCC4)CCOCCOCC3)CCOCCOCC2)cc1; system = 1199B (NorA overexpressing); MIC = 1 µM
SMILES = c1ccc(CCNC2CCCc3c2[nH]c2ccc(C4CCCCC4)cc32)cc1 (stereo not drawn); test = broth microdilution; system = Mu50 VISA; MIC = 2 µg/mL
SMILES = C=C1NC(=O)C2C[S+]([O-])CC3NC(=O)C(CSC(C)C(NC(=S)C(Cc4cnc[nH]4)NC(=O)c4csc(C(C)NC(C)=O)n4)C(=O)N[C@H](CC(C)C(=O)NC(=O)CC(C(=O)O)NC(=O)C(C)NC3=O)C(=O)N2)NC(=O)[C@@H]2CCCN2C(=O)[C@@H](CC(C)C)NC1=O (stereo partly drawn); test = bacterial growth; system = ATCC 29213; MIC = > 32 µg/mL
SMILES = CC(C)C[C@@H]1NC(=O)[C@H](CCCCN)NC(=O)CNC(=O)[C@H]2CCCN2C(=O)[C@H](CCCCN)NC(=O)[C@H](CC(C)C)NC(=O)[C@H](CCCCN)NC(=O)[C@H](CC(C)C)NC(=O)[C@H](CCCCN)NC(=O)C(N)CCC=CCCC(C(N)=O)NC(=O)[C@H](CCCCN)NC(=O)[C@H](CC(C)C)NC(=O)[C@H](CCCCN)NC1=O (stereo partly drawn); test = broth microdilution; system = ATCC 29737, Mueller-Hinton broth; conditions = 18 h, 37 °C; MIC = 64 µM
SMILES = COc1ccc(/C=N/[C@@H]2CCCC[C@@H]2/N=C/c2c(O)ccc3ccc(OC)cc23)c(O)c1; test = bacterial growth, broth microdilution; system = vancomycin-intermediate; MIC = > 40 µM

Some of these lines once more:
SMILES = CCCCCCCC[C@H](NC(=O)[C@@H]1CSC([C@@H](N)[C@@H](C)CC)=N1)C(=O)N[C@H](CCC(=O)O)C(=O)N[C@H](C(=O)N[C@H]1CCCCNC(=O)[C@H](CC(N)=O)NC(=O)[C@@H](CC(=O)O)NC(=O)[C@H](Cc2c[nH]cn2)NC(=O)[C@@H](Cc2ccccc2)NC(=O)[C@H]([C@@H](C)CC)NC(=O)[C@@H](CCCN)NC1=O)[C@@H](C)CC; system = USA300 MRSA; conditions = with: ZnSO4 0.3 mM; MIC = 1 µg/mL
SMILES = CC(C)C[C@@H](NC(=O)[C@@H](CCCNC(=N)N)NC(=O)[C@H](N)CCCNC(=N)N)C(=O)N[C@H](CC(C)C)C(=O)N[C@H](CCCNC(=N)N)C(=O)N[C@H](CCCCN)C(=O)N[C@H](CC(C)C)C(=O)N[C@H](CCCCN)C(=O)NCC(=O)N[C@H](CCCCN)C(=O)N[C@H](CCCCN)C(=O)N[C@H](CC(C)C)C(=O)N[C@H](Cc1ccc(O)cc1)C(=O)N[C@H](CC(C)C)C(=O)N[C@H](Cc1ccc(O)cc1)C(=O)N[C@H](Cc1ccccc1)C(=O)N[C@H](CCCCN)C(=O)N[C@H](CC(C)C)C(=O)N[C@H](CCC(N)=O)C(=O)N[C@H](CC(C)C)C(=O)N[C@H](CC(C)C)C(=O)N[C@H](CCCCN)C(=O)N[C@H](CCCCN)C(N)=O; test = broth microdilution; system = KCTC 1621, Mueller-Hinton broth; conditions = 24 h, 37 °C; MIC = 4 µM
